Experimental data pooled from the literature.
Compare with care: the assays were run in different laboratories.
Cell line: MCF7
Observed: cell growth or viability

| SMILES | test | setting | GI50 |
| --- | --- | --- | --- |
| CC(C)C1=C(O)C(=O)C2=C(C1=O)[C@H](OC=O)[C@@H](O)[C@H]1C(C)(C)CCC[C@]21C | SRB | 48 h | 7.9 µM |
| CC(=O)N[C@@H](Cc1ccc(O)cc1)CN(CC(=O)N[C@@H](CCCCN)CN(CC(=O)N[C@@H](Cc1ccccc1)CN(CC(=O)N[C@H]1CCCCNc2c(F)c(F)c(c(F)c2F)S(=O)(=O)c2c(F)c(F)c(c(F)c2F)NCCCC[C@@H](CN(CC(=O)N[C@@H](C)CN(CC(N)=O)S(C)(=O)=O)S(C)(=O)=O)NC(=O)CN(S(=O)(=O)Cc2ccccc2)C[C@H](CC(C)C)NC(=O)CN(S(=O)(=O)CCN)C1)S(=O)(=O)CC(C)C)S(=O)(=O)CCN)S(C)(=O)=O | CCK-8 | 72 h | 7.42 µM |
| COc1cc([C@@H]2c3cc4c(cc3[C@@H](OCc3cc(-c5cccc(C#N)c5)no3)[C@H]3COC(=O)C23)OCO4)cc(OC)c1OC (stereo partly shown) | SRB | 48 h | 2.52 µM |
| CCC(=C(c1ccc(Cl)cc1)c1ccc(OCCCN(C)C)cc1)c1ccc(OC)cc1 | SRB |  | 1.05 µM |
| CC(C)C[C@@H](NC(=O)[C@H](C)NC(=O)CNC(=O)[C@@H](NC=O)C(C)C)C(=O)N[C@@H](C)C(=O)N[C@@H](C(=O)N[C@H](C(=O)N[C@@H](C(=O)N[C@@H](Cc1c[nH]c2ccccc12)C(=O)N[C@H](CC(C)C)C(=O)N[C@@H](Cc1c[nH]c2ccccc12)C(=O)N[C@H](CC(C)C)C(=O)N[C@@H](Cc1c[nH]c2ccccc12)C(=O)N[C@H](CC(C)C)C(=O)N[C@@H](Cc1c[nH]c2ccccc12)C(=O)NCCO)[C@H](C)O)C(C)C)C(C)C | SRB | 48 h | 0.99 µM |
| COc1cc([C@@H]2c3cc4c(cc3[C@@H](OCc3cc(-c5ccc(C)cc5)no3)[C@H]3COC(=O)C23)OCO4)cc(OC)c1OC (stereo partly shown) | SRB | 48 h | 3.08 µM |
| O=C1c2ccccc2C(=O)c2c1ccc1c2C(C(=O)NCc2ccccc2)C(=O)C1c1ccccc1 (stereo not shown) |  |  | 10.3 µg/mL |
| CCC(=C(c1ccc(O)cc1)c1ccc(Cl)cc1)c1ccc(OC)cc1 | SRB |  | 1.05 µM |
| O=C1c2ccccc2C(=O)c2c1ccc1c2C(C(=O)Nc2ccccc2)C(=O)C1c1ccccc1 (stereo not shown) |  |  | 11.6 µg/mL |
| COc1ccc(-c2cc(COC3c4cc5c(cc4C(c4cc(OC)c(OC)c(OC)c4)C4C(=O)OCC34)OCO5)on2)cc1 (stereo not shown) | SRB | 48 h | 0.18 µM |
| CC(=O)OCC1(O)C(Nc2cccc(C(C)=O)c2)C(N)C(NC(=O)N(C)C)(C(C)OC(C)=O)C1(C)O (stereo not shown) | SRB |  | 7.31 µM |
| N=C(N)NCCC[C@@H]1NC(=O)[C@H](CCCCN)NC(=O)[C@@H](Cc2ccc(O)cc2)NC(=O)[C@H](CC(=O)O)NC(=O)CNC1=O | MTT |  | > 100 µM |
| O=C1c2ccccc2C(=O)c2c1ccc1c2C(C(=O)Nc2ccccc2Cl)C(=O)C1c1ccccc1 (stereo not shown) |  |  | 18.5 µg/mL |
| CCCCCCCCCCCCCCCC(=O)N[C@H](Cc1ccc(O)cc1)C(=O)N[C@H](CC(C)C)C(=O)N[C@@H](C(=O)NCC(=O)N[C@H](CC(N)=O)C(=O)NCC(=O)N[C@H](CC(C)C)C(=O)N[C@H](CCCNC(=N)N)C(=O)N[C@H](CO)C(=O)N[C@H](CC(N)=O)C(=O)N[C@H](CC(N)=O)C(=O)N[C@H](CCCNC(=N)N)C(N)=O)C(C)C | MTT | 48 h | 0.04 µM |
| CCCC(C)NC(=O)C(Nc1ccccc1C(=O)c1ccccc1)c1cn(C)c2ccccc12 (stereo not shown) | MTT | 72 h | 6 µM |
| CC(=O)N[C@@H](Cc1ccc(O)cc1)CN(CC(=O)N[C@@H](CCCCN)CN(CC(=O)N[C@@H](Cc1ccccc1)CN(CC(=O)N[C@H]1CCCCNc2c(F)c(F)c(c(F)c2F)S(=O)(=O)c2c(F)c(F)c(c(F)c2F)NCCCC[C@@H](CN(CC(=O)N[C@@H](C)CN(CC(N)=O)S(C)(=O)=O)S(C)(=O)=O)NC(=O)CN(S(=O)(=O)CC(C)C)C[C@H](CC(C)C)NC(=O)CN(S(=O)(=O)CCN)C1)S(=O)(=O)CC(C)C)S(=O)(=O)CCN)S(C)(=O)=O | CCK-8 | 72 h | 0.83 µM |

For quick reference, copied from above:
| SMILES | test | setting | GI50 |
| --- | --- | --- | --- |
| CC(=O)N[C@@H](Cc1ccc(O)cc1)CN(CC(=O)N[C@@H](CCCCN)CN(CC(=O)N[C@@H](Cc1ccccc1)CN(CC(=O)N[C@H]1CCCCNc2c(F)c(F)c(c(F)c2F)S(=O)(=O)c2c(F)c(F)c(c(F)c2F)NCCCC[C@@H](CN(CC(=O)N[C@@H](C)CN(CC(N)=O)S(C)(=O)=O)S(C)(=O)=O)NC(=O)CN(S(=O)(=O)Cc2ccccc2)C[C@H](CC(C)C)NC(=O)CN(S(=O)(=O)CCN)C1)S(=O)(=O)CC(C)C)S(=O)(=O)CCN)S(C)(=O)=O | CCK-8 | 72 h | 7.42 µM |
